# Measurements of several laboratories.
# A part holds a random share of what one study measured.

# Series 1 — technique: RNA Bind-n-Seq; form: RNA; sample: in vitro; concentration: 20 nM; setting: 6-mer, flanks averaged, single round; added: 150 mM LiCl; baseline: input library; direction: higher = stronger binding
# Target: TAR DNA-binding protein 43, full length, His tag (TARDBP, Homo sapiens, UniProt Q13148, residues 1-414)
Strand,6-mer enrichment (R)
GUCUUU,1.09
AGCUAU,0.88
AUGCGC,0.99
AUGGCA,0.94
GAAUUG,0.992
GUUCUA,0.895
UAGUGA,1.01
CCCUUG,1.23
AUAGAU,0.866
GCCUAC,0.917
CCUUUA,1.01
AAGUCA,0.81
GGUGAC,1.03
GGUGGU,1.43
GUGAAG,1.17
UAGUCC,0.894
GCGUCU,0.942
UCUUAA,0.898
GGUAGC,1.03
CGGGAG,1.07
GAUCUU,0.876
ACAGGG,1
CCCUGC,1.05
ACUACU,0.854
CUAGGA,0.851

# Series 2 — technique: RNA Bind-n-Seq; form: RNA; sample: in vitro; concentration: 200 nM; setting: whole 134-nt RNA, ends assumed; added: 150 mM LiCl; baseline: input library; direction: higher = stronger binding; library: 7-deaza-guanosine replaces G
# Target: Ras GTPase-activating protein-binding protein 1, full length (G3BP1, Homo sapiens, UniProt Q13283)
# UniProt Q13283, sequence (whole entry, looked up): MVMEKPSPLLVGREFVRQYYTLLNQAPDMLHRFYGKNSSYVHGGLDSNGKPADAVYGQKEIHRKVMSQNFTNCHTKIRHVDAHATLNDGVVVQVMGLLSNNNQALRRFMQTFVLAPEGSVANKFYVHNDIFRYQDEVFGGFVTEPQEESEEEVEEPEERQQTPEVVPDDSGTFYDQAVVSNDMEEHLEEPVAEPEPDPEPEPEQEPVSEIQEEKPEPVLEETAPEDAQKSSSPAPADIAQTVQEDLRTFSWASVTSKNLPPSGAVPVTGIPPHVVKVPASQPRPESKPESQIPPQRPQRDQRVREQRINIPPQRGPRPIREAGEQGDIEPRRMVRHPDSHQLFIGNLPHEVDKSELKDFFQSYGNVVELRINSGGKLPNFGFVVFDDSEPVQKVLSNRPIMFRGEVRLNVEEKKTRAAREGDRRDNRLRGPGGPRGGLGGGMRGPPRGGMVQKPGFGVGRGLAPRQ
Strand,log2 enrichment
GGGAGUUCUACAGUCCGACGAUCUUCCUCAAGUCCUGUGCUACACAUCGUAUGUACCGAAUCGGGCGGCGGCGGAAAGUAUUAUGUUACGCCGUUCGGAUCUGCACUUCCAGCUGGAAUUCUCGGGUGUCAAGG,1.11
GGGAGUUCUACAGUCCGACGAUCCACAGACAACACGCACCCACACAGACACAGAGGGAAGGGGUUGGGAUGGGGAAAAGGUGCACAGCAGGGCGGGGUAGGACCCCAGCCCCUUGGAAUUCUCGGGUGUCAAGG,-0.044
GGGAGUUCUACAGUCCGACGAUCUAUAUUGAGGUAUAGAGCUAUUCUUUGUAGGUACCCUGGUGAGACCGAUACAAAUAUGCCCCUCCCCAUAAUGGAAUACUAAUUUUUAUUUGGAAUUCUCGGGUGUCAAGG,0.0455
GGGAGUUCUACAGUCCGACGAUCUUACGAUUAUAUCACCCGGACACACAUCAUGCUUAAGAUUCAACUGGGAGCAUACCAGGGAUGCUCUCUAACGUAAUCAAGGGAAGGUUCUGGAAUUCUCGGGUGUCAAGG,-1.03
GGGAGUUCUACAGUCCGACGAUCUGGGAGGUGGAUUUUGUUUAUUUUUUUAGCUCAUUUCCAGGGGUGGGAAUUUUUUUUUAAUAUGUGUCAUGCAUAAAGUUGUUUUUGAAAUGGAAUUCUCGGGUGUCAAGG,-0.00949
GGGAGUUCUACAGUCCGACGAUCCUGUGCUACACAUCGUAUGUACCGAAUCGGGCCCCCCCGGGCCCCCCCGGGCCCCCCCGGGGAAAGUAUUAUGUUACGCCGUUCGGAUCUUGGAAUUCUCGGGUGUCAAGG,-0.265
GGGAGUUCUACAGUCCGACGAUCCUGUGCUACACAUCGUAUGUACCGAAUCGGGGAAAAAAAGGGGAAAGGGGUUUUUUUGGGGAAAGUAUUAUGUUACGCCGUUCGGAUCUGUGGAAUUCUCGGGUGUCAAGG,-0.23
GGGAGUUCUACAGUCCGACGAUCACCAUGCAGGUGGGCAUCUUUGGGAAGUGGGGCAAGGGGGGGAUAGGGAGGGGGGUAACACUUUGGGAACAGGUGGUCAAAGGUCGUUUCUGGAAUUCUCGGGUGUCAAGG,-0.0308
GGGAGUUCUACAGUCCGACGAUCUGGCCCUGGUGGCAUGCGGGGAGGAAGAGGUGGCCUCAUGGAUCGUGGUGGUCCCGGUGGAAUGUUCAGAGGUGGCCGUGGCGGAGACAGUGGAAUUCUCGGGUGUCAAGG,-0.11
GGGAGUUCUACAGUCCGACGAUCGCAGGAAGUUAAAACAAAUGGAAAUGCUUCGGAUAGUGGCAGGGGUGGGGGUUGCUAAGGAAAGGGUGGGAUGGGAGUGGGUAAAGAGUUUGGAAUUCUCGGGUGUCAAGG,0.113
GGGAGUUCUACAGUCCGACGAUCCCUGUGCUACACAUCGUAUGUACCGAAUCGGGGAAAAAAGGGAAAAAAGGGGAAAAAAGGGAAAGUAUUAUGUUACGCCGUUCGGAUCUGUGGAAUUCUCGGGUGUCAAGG,0.661

# Series 3 — technique: RNA Bind-n-Seq; form: RNA; sample: in vitro; concentration: 365 nM; baseline: no-protein control; direction: higher = stronger binding
# Target: RNA binding protein fox-1 homolog 2, RRM domain, GST-SBP tag (RBFOX2, Homo sapiens, UniProt O43251-10, residues 100-194)
# Setting: natural RNA segment, single round, ends assumed
# Residues (chain): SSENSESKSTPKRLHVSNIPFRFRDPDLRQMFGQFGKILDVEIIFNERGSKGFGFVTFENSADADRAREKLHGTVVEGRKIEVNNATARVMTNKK
Strand,RBNS enrichment (R)
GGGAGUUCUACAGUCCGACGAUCUUAAACAUACCUGUGUUUUGAGAAGUGUCCUUCCCACUUUGGGCUUUCAGAAGGAAUACUUGGUUCUUUCUGGGGUCUCUAAUGUUCUCAGCCAAAACCUGGCCUGGCUAUGGAAUUCUCGGGUGCCAA,0.312
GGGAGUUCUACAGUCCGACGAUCAGGUGGAGGCAUCAAUCUGUUGGGUUCUGGUUCCCGGCUGCCUUUGGUUUUGAAAGUCUCUUCUCUGUAUAUUCCUACCCUGCAUUUGCUUUGUGUGGUGCUGAUGCUGUUGGAAUUCUCGGGUGCCAA,1.21
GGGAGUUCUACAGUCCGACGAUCAGAUCCCCUCCUGUAAGUGGCCAGGCAUUCUCUCCCUGCCCUCUCUGGCCUCUGGGGUCAUACUCACUUCUUUAGCCAGCCCCAUCCCCUCCACCCCACACCUGAGUUCUUGGAAUUCUCGGGUGCCAA,0.803
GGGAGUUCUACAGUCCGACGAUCGGAUGAGAGAGACAUUAAAAUUCUGGAGAUGUGCUUUUAUGAUGUUACAGAUCCAAAGACAUAGAGUGAUGUGGGUGUCAGGAGACUGAAGAGAGGUGAAAGGCACACUUUGGAAUUCUCGGGUGCCAA,2.46
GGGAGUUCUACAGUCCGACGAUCCUUGAAUGUUAAACAUGGAGUGUGACUGGGACAGCCAUGAGUCAGAAUAUAAAUGAAUGCUUAAACAUUUGAAUACAGAUUCCUCCGGAUUGUUGAAUUCACUCAACUAGUGGAAUUCUCGGGUGCCAA,0.808
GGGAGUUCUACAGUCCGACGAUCAUUUAUAAGCUCUAAGUAAUCAGCUUUAUCUAAUUUGAGGGCAUUAAAAUUACUGCCUAGAACUUUGAGAAGAGAAAAAUUCAGGGAUAAGUUGAAAGGCACUGGAACUGUGGAAUUCUCGGGUGCCAA,0.353
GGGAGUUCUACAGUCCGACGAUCGGGGCCCCCCACGCCGAGGUUCCUGGAGGCGGGAGGUGCCGCGAUCUAAGUGCCUAGCCCUUCCACCCACCCGCCGUCCACCUCGUCCAUCGGGGACACAGAGUGGCCAGUGGAAUUCUCGGGUGCCAA,0.196
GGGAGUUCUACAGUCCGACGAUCAUGGCUUCAGGAGACUUCAGUUUUUUGUUUAGCUACAUGAUUGAAUGCAUAAUAAAUGCUUUGUGCUUCUGACUAUCAAUACCUAAAGAAAGUGCAUCAGUGAAGAGAUGUGGAAUUCUCGGGUGCCAA,0.246
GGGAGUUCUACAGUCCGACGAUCUGCUUGGACCUAGUUGGUGUUUGUGUUCUGUAAAGUGAGCACGUUGUCCUCCCAAGAGAAGCACUUCAGUGGUGCAGUGGUAAGAGCCCACAGCAUUGAGGCCAGCCUGAUGGAAUUCUCGGGUGCCAA,0.548
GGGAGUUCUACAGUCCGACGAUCAAUAUGAAUCUCAUUGAAAUAAAAAAUGCCUUAAAGAAGCAGAUAUACAAGGACAUAUAUAGAGCUCGGUAAAGGUUAUCACAUUAAUACUCUUUCUUUACAUUAAGAUUUGGAAUUCUCGGGUGCCAA,0.778
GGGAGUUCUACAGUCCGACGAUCUACACAGCCCUCUUUCCGUUGUCCCUGGAAUGAUACUGGCCAGAAGCUGGAGAAUAAACAGGUACUGUGAUUGCUGGAAUAUUUCUGCAUAUACCUGAAGGUUAACACUCUGGAAUUCUCGGGUGCCAA,0.458
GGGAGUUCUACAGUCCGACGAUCUGACCGUCCUGGUGAGGACCACUGACUCAGAUAAUGCACUUUCCCCUCUGAUCCUGGACUCCCCAUGUCUAGUUCAGACCUAUUUCCUGUUCCCUUGAUAGCUUCGGGUCUGGAAUUCUCGGGUGCCAA,1.09

# Series 4 — technique: protein binding microarray; form: double-stranded DNA, one strand shown; sample: in vitro; concentration: not given; baseline: not given; direction: higher = stronger binding
# Target: Histone acetyltransferase KAT6A, both winged helices, GST fusion (KAT6A, Homo sapiens, UniProt Q92794, residues 1-181)
# Setting: 8-mer, flanks averaged, mean of 2 arrays, mostly near background
# Construct (chain): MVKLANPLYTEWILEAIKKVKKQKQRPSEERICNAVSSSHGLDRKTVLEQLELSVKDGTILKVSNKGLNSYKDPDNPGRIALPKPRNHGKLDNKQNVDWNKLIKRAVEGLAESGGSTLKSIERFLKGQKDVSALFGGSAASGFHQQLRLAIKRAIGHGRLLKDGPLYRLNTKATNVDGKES
Strand,E-score
GTTTGATA,-0.00915
AAGTAGGT,-0.0815
TACCACGA,-0.135
GACGGTCC,0.107
AAGATAGT,-0.123
CCATCACC,-0.148
CGCCGCTC,0.274
CCTAGTAG,-0.163
TGAGACCA,-0.115
TATAGTGA,-0.121
GAACCCGA,0.136
ATCAGAAA,-0.118
GCTTCTTA,-0.133
TAACGACA,0.0402
CGTTGGAC,-0.0494
CGGCACTA,0.22
ATTATTGC,0.0396
CACTTCGG,0.0246
CACTCCCC,0.038
TAATTAGA,-0.135
CGGGTTAC,0.283
ATCGTAAA,0.0107
CCACAAAG,-0.13

# Repeated from above (series 2):
Strand,log2 enrichment
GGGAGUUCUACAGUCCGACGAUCUAUAUUGAGGUAUAGAGCUAUUCUUUGUAGGUACCCUGGUGAGACCGAUACAAAUAUGCCCCUCCCCAUAAUGGAAUACUAAUUUUUAUUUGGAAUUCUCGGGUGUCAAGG,0.0455
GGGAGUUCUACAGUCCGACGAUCUUACGAUUAUAUCACCCGGACACACAUCAUGCUUAAGAUUCAACUGGGAGCAUACCAGGGAUGCUCUCUAACGUAAUCAAGGGAAGGUUCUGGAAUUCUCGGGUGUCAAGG,-1.03
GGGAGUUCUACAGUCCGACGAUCUGGGAGGUGGAUUUUGUUUAUUUUUUUAGCUCAUUUCCAGGGGUGGGAAUUUUUUUUUAAUAUGUGUCAUGCAUAAAGUUGUUUUUGAAAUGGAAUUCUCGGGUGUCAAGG,-0.00949
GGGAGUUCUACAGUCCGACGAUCCUGUGCUACACAUCGUAUGUACCGAAUCGGGCCCCCCCGGGCCCCCCCGGGCCCCCCCGGGGAAAGUAUUAUGUUACGCCGUUCGGAUCUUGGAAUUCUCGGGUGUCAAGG,-0.265
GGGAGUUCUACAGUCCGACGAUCCUGUGCUACACAUCGUAUGUACCGAAUCGGGGAAAAAAAGGGGAAAGGGGUUUUUUUGGGGAAAGUAUUAUGUUACGCCGUUCGGAUCUGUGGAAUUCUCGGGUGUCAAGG,-0.23
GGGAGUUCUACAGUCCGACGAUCACCAUGCAGGUGGGCAUCUUUGGGAAGUGGGGCAAGGGGGGGAUAGGGAGGGGGGUAACACUUUGGGAACAGGUGGUCAAAGGUCGUUUCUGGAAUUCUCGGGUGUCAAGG,-0.0308
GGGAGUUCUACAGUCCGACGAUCUGGCCCUGGUGGCAUGCGGGGAGGAAGAGGUGGCCUCAUGGAUCGUGGUGGUCCCGGUGGAAUGUUCAGAGGUGGCCGUGGCGGAGACAGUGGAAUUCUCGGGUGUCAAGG,-0.11
